Measurements of several laboratories.
Every numbered part comes from another study and shows a few of its results, in no order.

Set 1
Target: RNA binding protein fox-1 homolog 2, RRM domain, GST-SBP tag (RBFOX2, Homo sapiens, UniProt O43251-10, residues 100-194)
Method: RNA Bind-n-Seq
Molecule type: RNA
Medium: in vitro
Tested at: 365 nM
Notes: natural RNA segment, single round, ends assumed
Reference: no-protein control
Direction: higher = stronger binding
Endpoint: RBNS enrichment (R)
Shared flanks, not repeated: GGGAGUUCUACAGUCCGACGAUC … UGGAAUUCUCGGGUGCCAA
GGUGGGUGGCCCGCAUGCUGGGGAGGGUCUAUAGGAGGUUUGAGCUCAAAUGCUUAAACUGCUGGCAACAUAUAAUAAAUGCAUGCUAUUCAAUGAAUUUCUGCCUAUGA: 18.7
UGGCAUAGGGUGAGGCACAGCUUGAAAGGUGGUCAGACCUGCUUGGGCUUCUUUGCUUUUCAAAUGUCCUAGCUCUGUAGUUCGUGCUGUCAUUGGUUUGAUUGUCUCAC: 0.63
CACACCAGCCGGGGCUGUACCGCACUCGUGGUGGCUUGUUGUCCUCUCGACUCCUGUGGCAUGGUGCUAGUGCAUGUGACCUGUGCUGUUGUCACCCCAUGUGUUGUGUG: 22.8
UUGCUACAUAUUAGAAUCAUCUGGGAGGUUUUAAACAAAUUCUGAUGCCCAGGUUGCACCCCAUGCCAAUGAAAUCAUUUCUGGGCGUCAGCGCCAGGCAGUUGUAUUUU: 0.587
CUUUUAAGGUGUUGGGCAUGGAACCCCAGGCCUUACCUGCUUGGCAAGUGCUUUACCCCCGAACUACACCUGAAGCUCCAUUCCUUGUCCCUUCUGCACCAUUUAAAGGU: 1.85
AGGGUGAACAGCAUGGCGGCAUCUGGGCCCCACAGUAACACCUAGUGGCAACCUUGCCUUCCUGACCUCAGCGGCCCUUCUGUUCCAUCCUCUGUGGGCAGGGGUGUGGC: 1.83
GUCUGACCUGGGCCUGAGAGCUGGAGAAGGUGCAGAUUCAAAGUGAGCGGCUCCUGAGGAGAGCCGCCAAGGCUGCUCGCCUUCUCCGUGGCUUCCGCAGCUACCGUCUG: 0.71
GAAACCCAUGAUCACCCCUUUGAGGUAGAUUGACCGGCUUUAGACGCCCACCCCCCACCCACCGCAAGCUUUGAGUGGGACACCAUUCUGAAUUUUUUUUCUGAAUUUUU: 0.832

Set 2
Target: RING finger protein unkempt homolog, zinc fingers 1-6, GST-SBP tag (UNK, Homo sapiens, UniProt Q9C0B0, residues 30-357)
Sequence of UniProt Q9C0B0 (30-357, looked up): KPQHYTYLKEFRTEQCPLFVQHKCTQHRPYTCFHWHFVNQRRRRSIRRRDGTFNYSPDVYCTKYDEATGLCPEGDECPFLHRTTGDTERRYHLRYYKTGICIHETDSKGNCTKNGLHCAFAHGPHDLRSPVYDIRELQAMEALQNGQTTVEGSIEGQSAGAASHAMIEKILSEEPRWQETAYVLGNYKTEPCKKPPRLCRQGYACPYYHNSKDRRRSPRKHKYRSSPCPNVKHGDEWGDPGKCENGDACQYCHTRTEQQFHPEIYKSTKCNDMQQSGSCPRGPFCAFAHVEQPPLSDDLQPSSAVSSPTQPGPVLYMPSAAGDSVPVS
Method: RNA Bind-n-Seq
Molecule type: RNA
Medium: in vitro
Tested at: not given
Notes: RNA with constant flanks, human and mouse sites, ends assumed
Reference: input RNA pool
Direction: higher = stronger binding
Endpoint: bound/input enrichment
Shared flanks, not repeated: GGGAGUUCUACAGUCCGACGAUC … CAACAGAGGAUUGAGCAUCA
CAGUUAAGAAAAGGUGUGAGUGAGAUUGGAGAUGCAGCUGACUACGAUGAAGAGCUCUAUGUGGCUGGGAACAUGGUUAUCUGGAGCAAAGGGAGUAAAAGCCAGGCACUGGCAGUGUAC: 0.47 ratio
CUAGUACUCCCAACCCCACCUUACUUGUUUGGGAUUCUUAUCCAGAAAUGGGAAACUCCUUGGGCUAAAGUAUUUCCUAUCCGUCUGAUGUUGAGACUUGGAGCUGAAUAUCGACUUUAU: 0.352 ratio
UAAGAGAACAGCCAGAUGGUUUAUAUGAAUAAUCUUUAUCUGCAGGAUGGUGGAUUGGUAAAUUAGGAGAAUGUUGUUUGAGAUAUCAAGAUUUAUGUCUGGGAACUAAAAUAUAUAAUG: 2.12 ratio
CGAGUUCUGGCAGCUUUACAGGAGCGACUUGACAAUGUCCCUCACACCCCUUCCAGCUACAUCGAAACUUUACCUAAAGCAGUAAAAAGAAGAAUUAAUGCAUUGAAACAACUUCAGGUG: 0.139 ratio
UGUUCCAACGCUGCCUUUGCUUUAAAACAGUAUUACUUGCGUUAUCUAGAAAAGUACGAGAAAGUUCAUCAUUUUGGGGAAGAUGAUGAUGAGGUACCACCAGGCAAUCCAAAGCCACAG: 0.609 ratio
AACUUUGUACAUAGAUUUCCUUUUGUAGCUGUUUCAAUUGGCUUUGCUGUAAAUAAAAAGAUAGAAUUUGGAGUUGUGUACAGUUGUGUGGAAGGCAAGAUGUACACUGCCAGAAAAGGA: 2.94 ratio
CGAAAUGUCUCCUGUGUCACAUAUUCUGGAGGUUACAUCUUUCUGUGACAACAGGGAGUUUCCUUAUGCAUUCUUCAUUUGCUGCUGUUUAAGUUGACAACUUCCUUCCCAAUAAAAAUU: 0.287 ratio
AUUUGUUUUGUGAAUGACCCACGGCCCCAGCACAAGUACAAUAAAUUGUACACAGUAGACUACUUGAGCAAUAUGGUUGGAGGGAGAAAAACGCUGUAUAACAACCAGCCCAUUGACUUC: 0.125 ratio

Set 3
Target: Sal-like protein 4, full length isoform B (SALL4, Homo sapiens, UniProt Q9UJQ4-2, residues 1-616)
Method: universal PBM
Molecule type: double-stranded DNA, one strand shown
Medium: in vitro
Tested at: not given
Notes: 8-mer, flanks averaged, mean of replicates
Direction: higher = stronger binding
Endpoint: E-score
GTTCATGA: 0.0682
AAAGCGAT: 0.0863
CTCGGAAC: -0.182
ACGAGCAA: -0.0704
CACTCGCC: -0.169
GGACCGAC: -0.329
GCTACGTA: 0.00971
CTGGGGGA: -0.235
GAGTCACA: -0.128
GTCGACGA: -0.163
CAAGAAGA: 0.0191
CGCCACAA: -0.0378
ACACGCCT: 0.101
ACCGCTCT: -0.178
CCAGTGGG: -0.342
GCAAGTAC: 0.103
AGTTTTTA: 0.312
CCCGTTCG: -0.115

Set 4
Target: Histone acetyltransferase KAT6A, winged helix 2, GST fusion (KAT6A, Homo sapiens, UniProt Q92794, residues 85-181)
Method: protein binding microarray
Molecule type: double-stranded DNA, one strand shown
Medium: in vitro
Tested at: not given
Notes: 8-mer, flanks averaged, mean of 2 arrays, mostly near background
Reference: not given
Direction: higher = stronger binding
Endpoint: E-score
Construct (chain): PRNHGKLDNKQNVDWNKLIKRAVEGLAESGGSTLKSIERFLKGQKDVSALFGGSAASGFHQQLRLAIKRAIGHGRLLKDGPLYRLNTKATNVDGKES
AAACCTGC: 0.0253
GGGGGAGA: 0.129
CCTGCTAA: -0.0271
AATCGGCT: 0.108
AAATGAGG: -0.148
TGACAACA: -0.103
AGCTAACT: -0.107
CCCATCTC: -0.0509
GGGACAAA: 0.0217
GGAGGGAC: -0.00153
CGATCGCG: 0.063
CCCGTAAC: -0.118
GGGACCCC: 0.018
AGTAGACC: -0.0196
GATTACGC: 0.0508
GTCAGAGA: 0.0228
CGAGTTCA: 0.128

Repeated from above (set 1):
UGGCAUAGGGUGAGGCACAGCUUGAAAGGUGGUCAGACCUGCUUGGGCUUCUUUGCUUUUCAAAUGUCCUAGCUCUGUAGUUCGUGCUGUCAUUGGUUUGAUUGUCUCAC: 0.63
CACACCAGCCGGGGCUGUACCGCACUCGUGGUGGCUUGUUGUCCUCUCGACUCCUGUGGCAUGGUGCUAGUGCAUGUGACCUGUGCUGUUGUCACCCCAUGUGUUGUGUG: 22.8
UUGCUACAUAUUAGAAUCAUCUGGGAGGUUUUAAACAAAUUCUGAUGCCCAGGUUGCACCCCAUGCCAAUGAAAUCAUUUCUGGGCGUCAGCGCCAGGCAGUUGUAUUUU: 0.587
CUUUUAAGGUGUUGGGCAUGGAACCCCAGGCCUUACCUGCUUGGCAAGUGCUUUACCCCCGAACUACACCUGAAGCUCCAUUCCUUGUCCCUUCUGCACCAUUUAAAGGU: 1.85
AGGGUGAACAGCAUGGCGGCAUCUGGGCCCCACAGUAACACCUAGUGGCAACCUUGCCUUCCUGACCUCAGCGGCCCUUCUGUUCCAUCCUCUGUGGGCAGGGGUGUGGC: 1.83
GUCUGACCUGGGCCUGAGAGCUGGAGAAGGUGCAGAUUCAAAGUGAGCGGCUCCUGAGGAGAGCCGCCAAGGCUGCUCGCCUUCUCCGUGGCUUCCGCAGCUACCGUCUG: 0.71
GAAACCCAUGAUCACCCCUUUGAGGUAGAUUGACCGGCUUUAGACGCCCACCCCCCACCCACCGCAAGCUUUGAGUGGGACACCAUUCUGAAUUUUUUUUCUGAAUUUUU: 0.832
